Assay results collected from several papers.
Compare with care: the assays were run in different laboratories. ± marks the error that the study gave.

Compound	species	sample	route	dose	time	notes	Cmax
CN(C)C1(CNC(=O)c2ccc3c(c2)CCN3C(=O)c2ccccc2)CCOCC1	ICR mouse, male	plasma	intraperitoneal	30 mg/kg			152 ± 31 ng/mL
OB(O)CSc1nc2ccccc2n1Cc1ccc(C(F)(F)F)cc1C(F)(F)F	mouse	thigh	subcutaneous	25 mg/kg			28000 ng/g
Cc1ccc(F)c2cc(C(=O)N[C@@H]3CCC[C@H](N4CC[C@H](N(C)S(C)(=O)=O)C4)C3)[nH]c12	CD1 mouse		oral	100 mg/kg			3990 ng/mL
Nc1ccc2cc3ccc(N)cc3nc2c1	male CD-1 mouse	lung	oral	100 mg/kg as hydrochloride			14100 ng/mL
NC(=O)c1cccc(-c2cc(OC(=O)NC3CCCCC3)ccc2O)c1	mouse	plasma	oral	10 mg/kg			123 ng/mL
O=C1c2c(O)c(=O)ccn2N([C@@H]2c3ccccc3SCc3c2ccc(F)c3F)[C@@H]2COCCN12	BALB/c mouse		subcutaneous	0.125 mg/kg q12h			9.27 ng/mL
CN[C@H]1CC[C@@H](c2ccc(Cl)c(Cl)c2)c2ccccc21	CD-1 mouse, male	lung	intraperitoneal	30 mg/kg			43500 ng/g
N#Cc1c(Oc2cccc(OS(=O)(=O)CCCC(F)(F)F)c2)cccc1C(F)(F)F	mouse	brain	oral	5 mg/kg	1 h post-dose		360 ng/g
N#C[C@@]1(n2ccc(N)nc2=O)O[C@H](CO)[C@@H](O)[C@H]1O	CD-1 mouse	plasma	oral	30 mg/kg		mean	17500 ng/mL
Cc1ccccc1C(=O)NN=Cc1ccc(O)c(Br)c1	C3H/HeN mouse IN model	plasma	intraperitoneal	0.8 mg/kg			213 ng/mL
